{"data": "Experimental data collected from several papers", "note": "Every numbered part comes from another study and shows a few of its results, in no order. Several values in a cell are separate wells, animals, samples, runs or records.", "UniProt P46098, sequence (whole entry, looked up)": "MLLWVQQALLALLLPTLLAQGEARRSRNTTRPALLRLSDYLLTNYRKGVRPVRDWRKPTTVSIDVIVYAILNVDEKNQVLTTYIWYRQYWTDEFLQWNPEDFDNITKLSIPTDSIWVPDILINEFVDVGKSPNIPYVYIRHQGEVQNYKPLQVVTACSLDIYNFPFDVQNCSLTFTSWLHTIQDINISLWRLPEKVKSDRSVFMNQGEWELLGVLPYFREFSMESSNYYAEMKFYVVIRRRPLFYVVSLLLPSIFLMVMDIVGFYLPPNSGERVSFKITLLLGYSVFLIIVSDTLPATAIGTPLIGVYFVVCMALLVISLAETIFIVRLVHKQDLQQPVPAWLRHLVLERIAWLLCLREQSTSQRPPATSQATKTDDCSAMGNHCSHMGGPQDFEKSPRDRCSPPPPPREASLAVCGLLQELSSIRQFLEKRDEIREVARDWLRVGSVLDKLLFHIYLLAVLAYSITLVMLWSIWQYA"}
{"data": "Series 1", "cell line": "Huh-7", "concentration": "10 µM", "time": "24 h"}
{"Structure (SMILES)": "COCCOC(=O)C1=C(C)NC(C)=C(C(=O)OC(C)C)C1c1cccc([N+](=O)[O-])c1 (stereo not drawn)", "viability": "92.8%"}
{"Structure (SMILES)": "O=C(O)c1ccc(S(=O)(=O)N(Cl)Cl)cc1", "viability": "99.1%"}
{"Structure (SMILES)": "NC(=O)OCC(COC(N)=O)c1ccccc1", "viability": "101%"}
{"Structure (SMILES)": "CCOC(=O)[C@H](CCc1ccccc1)N[C@@H](C)C(=O)N1[C@H](C(=O)O)C[C@@H]2CCC[C@@H]21", "viability": "99.8%"}
{"Structure (SMILES)": "Nc1nc2nc[nH]c2c(=S)[nH]1", "viability": "68.6%"}
{"Structure (SMILES)": "C[C@@](Cc1ccc(O)c(O)c1)(NN)C(=O)O", "viability": "94.1%"}
{"Structure (SMILES)": "CCN(CC)CCNC(=O)c1cc(S(C)(=O)=O)ccc1OC", "viability": "85.7%"}
{"Structure (SMILES)": "Cc1cc(NC(=O)C2=C(O)c3ccccc3S(=O)(=O)N2C)no1", "viability": "97%"}
{"Structure (SMILES)": "O=C(OOC(=O)c1ccccc1)c1ccccc1", "viability": "101%"}
{"data": "Series 2", "target": "Activin receptor type-1 (ACVR1, Homo sapiens, UniProt Q04771)", "effect on": "enzyme activity", "mode": "inhibitor", "concentration": "0.5 µM", "relative to": "control", "Target sequence (Q04771 1-509)": "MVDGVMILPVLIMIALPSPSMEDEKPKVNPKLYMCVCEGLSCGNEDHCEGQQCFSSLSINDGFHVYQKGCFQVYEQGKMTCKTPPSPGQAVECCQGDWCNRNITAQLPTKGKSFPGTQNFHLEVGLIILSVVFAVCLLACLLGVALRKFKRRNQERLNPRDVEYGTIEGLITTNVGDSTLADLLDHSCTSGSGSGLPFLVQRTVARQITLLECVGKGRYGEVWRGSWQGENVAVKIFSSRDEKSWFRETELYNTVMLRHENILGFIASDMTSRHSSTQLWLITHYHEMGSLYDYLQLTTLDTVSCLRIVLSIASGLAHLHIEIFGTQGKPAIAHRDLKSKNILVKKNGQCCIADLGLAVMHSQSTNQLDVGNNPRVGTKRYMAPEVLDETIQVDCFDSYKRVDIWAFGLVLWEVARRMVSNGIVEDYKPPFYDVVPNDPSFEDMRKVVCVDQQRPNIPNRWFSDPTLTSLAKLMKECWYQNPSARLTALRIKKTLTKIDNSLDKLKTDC"}
{"SMILES": "Ic1cccc(CSc2nnc(-c3ccncc3)o2)c1", "remaining activity": "97.4%"}
{"SMILES": "CCN(CC)CCNC(=O)c1c(C)[nH]c(/C=C2\\C(=O)Nc3ccc(Cl)cc32)c1C", "remaining activity": "108%"}
{"SMILES": "CCOc1nc(NC(=O)Cc2cc(OC)ccc2OC)cc(N)c1C#N", "remaining activity": "95.2%"}
{"SMILES": "COc1cc2c(cc1OC)-c1[nH]nc(Nc3cccc(F)c3)c1C2", "remaining activity": "107%"}
{"SMILES": "CCN(CC)CCNC(=O)c1c(C)[nH]c(/C=C2\\C(=O)Nc3ccc(F)cc32)c1C", "remaining activity": "121%"}
{"SMILES": "CCN(CC)C(=O)c1ccc(Nc2nc(OCC3CCCCC3)c3[nH]cnc3n2)cc1", "remaining activity": "98.8%"}
{"SMILES": "O=C(Nc1cccc(Nc2nccc(Nc3cccc(C(F)(F)F)c3)n2)c1)C1CC1", "remaining activity": "111%"}
{"SMILES": "Cc1cc2ncc(-c3ccccc3)nc2cc1C", "remaining activity": "91.8%"}
{"SMILES": "Nc1cccc(-c2cc3c(Oc4cccc(O)c4)ncnc3[nH]2)c1", "remaining activity": "183%"}
{"SMILES": "Cc1nc2cc3nc(-c4cccs4)cnc3cc2n1C", "remaining activity": "99.3%"}
{"SMILES": "Cc1cn(-c2cc(NC(=O)c3ccc(C)c(Nc4nccc(-c5cccnc5)n4)c3)cc(C(F)(F)F)c2)cn1", "remaining activity": "112%"}
{"SMILES": "Cn1nc2c3c(cccc31)C(=O)c1ccccc1-2", "remaining activity": "110%"}
{"SMILES": "CN(C)C[C@H]1CCn2c(c(C3=C(c4cn(C)c5ccccc45)C(=O)NC3=O)c3ccccc32)C1", "remaining activity": "93.3%"}
{"SMILES": "O=C1c2ccccc2-c2n[nH]c3cccc1c23", "remaining activity": "134%"}
{"SMILES": "COc1cc2ncnc(Nc3cccc(Cl)c3)c2cc1OC", "remaining activity": "108%"}
{"SMILES": "c1ccc(-c2[nH]ncc2-c2ccnc3ccccc23)nc1", "remaining activity": "106%"}
{"SMILES": "N#Cc1c(NC(=O)c2cccc3ccccc23)sc2c1CCCC2", "remaining activity": "72.9%"}
{"SMILES": "N#C/C(=C\\c1ccc(O)c(O)c1)C(=O)NCc1ccccc1", "remaining activity": "91.3%"}
{"SMILES": "O=C(NC(NC(=S)Nc1ccc(F)c([N+](=O)[O-])c1)C(Cl)(Cl)Cl)C(c1ccccc1)c1ccccc1 (stereo not drawn)", "remaining activity": "98.8%"}
{"SMILES": "C[C@@H]1CCN(C(=O)CC#N)C[C@@H]1N(C)c1ncnc2[nH]ccc12", "remaining activity": "104%"}
{"SMILES": "CN([C@@H](Cc1ccc(OS(=O)(=O)c2cccc3cnccc23)cc1)C(=O)N1CCN(c2ccccc2)CC1)S(=O)(=O)c1cccc2cnccc12", "remaining activity": "95%"}
{"SMILES": "O=C1C(Cl)=C(N2C(=O)CCC2=O)C(=O)c2ccccc21", "remaining activity": "96.9%"}
{"SMILES": "c1ccc(-c2cnc(Nc3ccc(OCCN4CCCC4)cc3)s2)cc1", "remaining activity": "164%"}
{"SMILES": "O=c1cc(-c2cccc3c2Sc2ccccc2S3)oc(N2CCOCC2)c1", "remaining activity": "97.5%"}
{"data": "Series 3", "cell line": "mouse MPNST tumor cells", "technique": "high-content immunofluorescence imaging", "refers to": "nuclear SOX9", "concentration": "10 µM", "time": "12 h", "setting": "mean of 2 replicates", "relative to": "DMSO control", "reading": "higher = more nuclear SOX9"}
{"SMILES": "C=C(CC(=O)OCCCCCCCC)C(=O)O", "nuclear SOX9 intensity": "94.5 % of DMSO"}
{"SMILES": "C[N+]1(C)CCC(=C(c2ccccc2)c2ccccc2)CC1", "nuclear SOX9 intensity": "102 % of DMSO"}
{"SMILES": "O=C(CCCN1CCC(O)(c2ccc(Br)cc2)CC1)c1ccc(F)cc1", "nuclear SOX9 intensity": "237 % of DMSO"}
{"SMILES": "CCCCCOC(=O)Nc1nc(=O)n([C@@H]2O[C@H](C)[C@@H](O)[C@H]2O)cc1F", "nuclear SOX9 intensity": "86.3 % of DMSO and 97.6 % of DMSO"}
{"SMILES": "C=CC1=C(C)c2cc3nc(cc4[nH]c(cc5[nH]c(cc1n2)c(C)c5CCC(=O)O)c(CCC(=O)OC)c4C)C1(C)C3=CC=C(C(=O)OC)C1C(=O)OC (stereo not drawn)", "nuclear SOX9 intensity": "89.3 % of DMSO"}
{"SMILES": "CC(=O)N(C)c1cccc(-c2ccc3nnc(C)n3n2)c1", "nuclear SOX9 intensity": "100 % of DMSO"}
{"SMILES": "CNCCc1ccccn1", "nuclear SOX9 intensity": "101 % of DMSO"}
{"SMILES": "NC1CCN(c2c(F)cc3c(=O)c(C(=O)O)cn(C4CC4)c3c2Cl)C1 (stereo not drawn)", "nuclear SOX9 intensity": "88.5 % of DMSO"}
{"SMILES": "CCOC(=O)c1c(-c2ccccc2)oc2ccc(Oc3c([N+](=O)[O-])ncn3C)cc12", "nuclear SOX9 intensity": "79.4 % of DMSO"}
{"SMILES": "COc1ccc(C(=O)C2CC2c2ccc(Cl)cc2)cc1 (stereo not drawn)", "nuclear SOX9 intensity": "106 % of DMSO"}
{"SMILES": "CC(=O)O[C@H]1C(=O)[C@@]2(C)[C@H]([C@H](OC(=O)c3ccccc3)[C@]3(O)C[C@H](OC(=O)[C@H](O)[C@@H](NC(=O)c4ccccc4)c4ccccc4)C(C)=C1C3(C)C)[C@]1(OC(C)=O)CO[C@@H]1C[C@@H]2O", "nuclear SOX9 intensity": "137 % of DMSO and 171 % of DMSO"}
{"SMILES": "Cc1ccccc1C(OCCN(C)C)c1ccccc1 (stereo not drawn)", "nuclear SOX9 intensity": "138 % of DMSO"}
{"SMILES": "CCCn1c(=O)[nH]c2nc(-c3ccc(S(=O)(=O)N4CCN(Cc5ccc(Cl)cc5)CC4)cc3)[nH]c2c1=O", "nuclear SOX9 intensity": "139 % of DMSO"}
{"SMILES": "C=CCc1cccc(/C=N/NC(=O)CN2CCN(Cc3ccccc3)CC2)c1O", "nuclear SOX9 intensity": "138 % of DMSO"}
{"data": "Other studies, line by line"}
{"SMILES": "Cc1nc(Cc2cccc(C(F)(F)F)c2)sc1-c1ccc(C(N)=O)nc1", "target": "5-hydroxytryptamine receptor 3A (HTR3A, Homo sapiens, UniProt P46098)", "assay": "binding, radioligand binding", "setting": "10 µM", "endpoint": "inhibition", "result": "4.72%"}
{"note": "Excerpt of the above (series 3):"}
{"SMILES": "CCOC(=O)c1c(-c2ccccc2)oc2ccc(Oc3c([N+](=O)[O-])ncn3C)cc12", "nuclear SOX9 intensity": "79.4 % of DMSO"}
{"SMILES": "COc1ccc(C(=O)C2CC2c2ccc(Cl)cc2)cc1 (stereo not drawn)", "nuclear SOX9 intensity": "106 % of DMSO"}
{"SMILES": "CC(=O)O[C@H]1C(=O)[C@@]2(C)[C@H]([C@H](OC(=O)c3ccccc3)[C@]3(O)C[C@H](OC(=O)[C@H](O)[C@@H](NC(=O)c4ccccc4)c4ccccc4)C(C)=C1C3(C)C)[C@]1(OC(C)=O)CO[C@@H]1C[C@@H]2O", "nuclear SOX9 intensity": "137 % of DMSO and 171 % of DMSO"}
{"SMILES": "Cc1ccccc1C(OCCN(C)C)c1ccccc1 (stereo not drawn)", "nuclear SOX9 intensity": "138 % of DMSO"}
{"SMILES": "CCCn1c(=O)[nH]c2nc(-c3ccc(S(=O)(=O)N4CCN(Cc5ccc(Cl)cc5)CC4)cc3)[nH]c2c1=O", "nuclear SOX9 intensity": "139 % of DMSO"}
{"SMILES": "C=CCc1cccc(/C=N/NC(=O)CN2CCN(Cc3ccccc3)CC2)c1O", "nuclear SOX9 intensity": "138 % of DMSO"}
